Results collected from several papers.
Lines come from different studies, so protocols differ.
Organism: Enterococcus faecalis

Structure (SMILES) | test | system | setting | MIC
CC1CCN(CCCN2/C(=C/c3cc(/C=C/c4c[nH]c5ccccc45)[n+](C)c4ccccc34)Sc3ccccc32)CC1 | microbial growth, broth dilution | ATCC29212 |  | > 64 µg/mL
CNC(CC(C)C)C(=O)NC1C(=O)NC(CC(N)=O)C(=O)NC2C(=O)NC3C(=O)NC(C(=O)NC(C(=O)NC(CCCNC(=N)N)C(N)=O)c4cc(O)cc(O)c4-c4cc3ccc4O)C(O)c3ccc(c(Cl)c3)Oc3cc2cc(c3OC2OC(CO)C(O)C(O)C2OC2CC(C)(N)C(O)C(C)O2)Oc2ccc(cc2Cl)C1O (centres unmarked) | broth microdilution | ATCC BAA-2573 VanA |  | 4 µg/mL
COc1cc(Cc2cnc(N)nc2N)cc(/C=C/C(=O)N2N=Cc3ccccc3C2C(C)C)c1OC (centres unmarked) | microbial growth, broth dilution | ATCC29212 |  | 0.03 to 0.06 µg/mL
CO[C@@H](C(N)=O)[C@H](NC(=O)c1ccc(NC(=O)c2ccc([N+](=O)[O-])cc2)cc1)C(=O)Nc1ccc(C(=O)Nc2ccc(C(=O)Nc3ccc(C(=O)O)cc3)c(O)c2OC(C)C)cc1 | microbial growth | ATCC29212 |  | 1 µg/mL
CC1=CC2(C)C(=C(C)C3C4CC(C)CC(C)C4C4Oc5ccc(cc5)CC5(O)NC(=O)C(=C(O)C2C43)C5Nc2ncnc3c2ncn3C2OC(CO)C(O)C2O)C1C (centres unmarked) | microbial growth, broth dilution | ATCC29212 |  | 6.3 µM
CN(C)c1cc(CNc2ccccc2)c(O)c2c1C[C@H]1C[C@H]3[C@H](N(C)C)C(O)=C(C(N)=O)C(=O)[C@@]3(O)C(O)=C1C2=O |  | JH2-2(pMV158), Tet L efflux |  | 2 µg/mL
Oc1c(Br)cc(Br)c2nc3cc(C(F)(F)F)ccc3nc12 | microbial growth, broth dilution | OG1RF |  | 0.78 µM
Cc1ccc2ccc3ccc(C)nc3c2n1.Cc1ccc2ccc3ccc(C)nc3c2n1.O.[Cl-].[Cl-].[Cl-].[Yb+3] |  |  |  | 125 µg/mL
Oc1c(Br)ccc2cccnc12 | microbial growth, agar dilution | ATCC33186 |  | 35.7 µM
CCC1(C)CCN(Cc2cc(N(C)C)c3c(c2O)C(=O)C2=C(O)[C@]4(O)C(=O)C(C(N)=O)=C(O)[C@@H](N(C)C)[C@@H]4C[C@@H]2C3)CC1 | microbial growth, broth dilution |  |  | 1 µg/mL
COc1ccc(CC2c3ccccc3C=NN2C(=O)/C=C/c2cc(Cc3cnc(N)nc3N)cc(OC)c2OC)cc1 (centres unmarked) | microbial growth, broth dilution | ATCC29212 |  | 4 to 8 µg/mL
CN(C)Cc1cc(N(C)C)c2c(c1O)C(=O)C1=C(O)[C@]3(O)C(=O)C(C(N)=O)=C(O)[C@@H](N(C)C)[C@@H]3C[C@@H]1C2 |  | JH2-2(pMV158), Tet L efflux |  | 1 µg/mL
CNC(CC(C)C)C(=O)NC1C(=O)NC(CC(N)=O)C(=O)NC2C(=O)NC3C(=O)NC(C(=O)NC(C(=O)NC(CCCNC(N)=O)C(=O)OC)c4cc(O)cc(O)c4-c4cc3ccc4O)C(O)c3ccc(c(Cl)c3)Oc3cc2cc(c3OC2OC(CO)C(O)C(O)C2OC2CC(C)(N)C(O)C(C)O2)Oc2ccc(cc2Cl)C1O (centres unmarked) | broth microdilution | ATCC BAA-2573 VanA |  | 16 µg/mL
N#Cc1ccc2cccc(O)c2n1 | microbial growth, agar dilution | ATCC33186 |  | > 1500 µM
COc1cc(Cc2cnc(N)nc2N)cc(/C=C/C(=O)N2N=Cc3ccccc3C2c2ccccc2)c1OC (centres unmarked) |  | ATCC 29212 | added: folinic acid 0.1 µg/mL | 0.125 to 0.25 µg/mL
CC(C)=CCc1cc2c(cc1O)OC[C@H]1c3ccc(O)c(CC=C(C)C)c3O[C@@H]21 |  | ATCC 29212 |  | 2 µg/mL
COc1cc(Cc2cnc(N)nc2N)cc(/C=C/C(=O)N2N=Cc3ccccc3C2C=C(C)C)c1OC (centres unmarked) |  | ATCC 29212 | racemate | 0.06 to 0.125 µg/mL
CNC(CC(C)C)C(=O)NC1C(=O)NC(CC(N)=O)C(=O)NC2C(=O)NC3C(=O)NC(C(=O)NC(C(=O)NCCNC(=N)N)c4cc(O)cc(O)c4-c4cc3ccc4O)C(O)c3ccc(c(Cl)c3)Oc3cc2cc(c3OC2OC(CO)C(O)C(O)C2OC2CC(C)(N)C(O)C(C)O2)Oc2ccc(cc2Cl)C1O (centres unmarked) | broth microdilution | BM 4166 VanA |  | 16 µg/mL

Structure (SMILES) | test | system | setting | MIC
CN(C)c1cc(CN)c(O)c2c1C[C@H]1C[C@H]3[C@H](N(C)C)C(O)=C(C(N)=O)C(=O)[C@@]3(O)C(O)=C1C2=O |  | JH2-2(pMV158), Tet L efflux |  | 4 µg/mL
CCC(O)CC#Cc1ccc(-n2nnc(/C(C)=N\NC(=N)N)c2C)cc1 (centres unmarked) | microbial growth, broth dilution | ATCC51299 |  | > 64 µg/mL
CNC(CC(C)C)C(=O)NC1C(=O)NC(CC(N)=O)C(=O)NC2C(=O)NC3C(=O)NC(C(=O)NC(C(=O)NC(CCCNC(=N)N)C(=O)OC)c4cc(O)cc(O)c4-c4cc3ccc4O)C(O)c3ccc(c(Cl)c3)Oc3cc2cc(c3OC2OC(CO)C(O)C(O)C2OC2CC(C)(N)C(O)C(C)O2)Oc2ccc(cc2Cl)C1O (centres unmarked) | broth microdilution | BM 4166 VanA |  | 8 µg/mL
CCCCCCCCCCCCCCCCCCSCC1OC(OC2C(N)CC(N)C(OC3OC(CN)C(O)CC3N)C2O)C(O)C(N)C1O (centres unmarked) |  | ATCC 29212 |  | 150 µg/mL
COCCOC(=O)NCc1cc(N(C)C)c2c(c1O)C(=O)C1=C(O)[C@]3(O)C(=O)C(C(N)=O)=C(O)[C@@H](N(C)C)[C@@H]3C[C@@H]1C2 | microbial growth, broth dilution |  |  | 4 µg/mL
COc1cc(Cc2cnc(N)nc2N)cc(/C=C/C(=O)N2N=Cc3ccccc3C2c2ccccc2C)c1OC (centres unmarked) | microbial growth, broth dilution | ATCC29212 |  | 0.125 µg/mL
Oc1ccccc1C1Nc2ccccc2C2=[O+][Cu-2]3([Cl])[O]c4ccccc4C=[N+]3N21 (centres unmarked) | broth microdilution | ATCC 29213 | 24 h | 256 µg/mL
CCN(CC)CCCN1/C(=C/c2cc[n+](C)c3ccccc23)Sc2ccccc21 | microbial growth, broth dilution | ATCC29212 |  | 32 µg/mL
CN(C)c1cc(CNCc2ccncc2)c(O)c2c1C[C@H]1C[C@H]3[C@H](N(C)C)C(O)=C(C(N)=O)C(=O)[C@@]3(O)C(O)=C1C2=O |  | JH2-2(pMV158), Tet L efflux |  | 2 µg/mL
COc1cc(Cc2cnc(N)nc2N)cc(/C=C/C(=O)N2N=Cc3ccccc3C2c2ccc(F)cc2)c1OC (centres unmarked) | microbial growth, broth dilution | ATCC29212 |  | 0.125 µg/mL
Cc1cc2[nH]c(C(=O)Nc3ccccc3C)c(CN3CCOCC3)c2s1 | broth microdilution | ATCC 29212, LB broth | 20 h | > 200 µM
CNCc1cc(N(C)C)c2c(c1O)C(=O)C1=C(O)[C@]3(O)C(=O)C(C(N)=O)=C(O)[C@@H](N(C)C)[C@@H]3C[C@@H]1C2 |  | JH2-2(pMV158), Tet L efflux |  | 8 µg/mL
CC(=O)[O][Ag]=[c]1n(C)ccn1CC([O-])c1ccccc1.[Na+] (centres unmarked) | broth dilution | ATCC 19433 | 18 h, 37 °C | 10 µg/mL
c1ccc(CN2CCOCCOCCN(CCCCCCCCCCCCCCN3CCOCCOCCN(CCCCCCCCCCCCCCN4CCOCCOCCN(Cc5ccccc5)CCOCCOCC4)CCOCCOCC3)CCOCCOCC2)cc1 | microbial growth |  |  | 1.5 µM
CNC(CC(C)C)C(=O)NC1C(=O)NC(CC(N)=O)C(=O)NC2C(=O)NC3C(=O)NC(C(=O)NC(C(=O)NCCCCNC(=N)N)c4cc(O)cc(O)c4-c4cc3ccc4O)C(O)c3ccc(c(Cl)c3)Oc3cc2cc(c3OC2OC(CO)C(O)C(O)C2OC2CC(C)(N)C(O)C(C)O2)Oc2ccc(cc2Cl)C1O (centres unmarked) | broth microdilution | ATCC BAA-2573 VanA |  | 4 µg/mL
Cc1csc(NCc2cc(N(C)C)c3c(c2O)C(=O)C2=C(O)[C@]4(O)C(=O)C(C(N)=O)=C(O)[C@@H](N(C)C)[C@@H]4C[C@@H]2C3)n1 | microbial growth, broth dilution |  |  | 4 µg/mL
CC1(C)S[C@@H]2[C@H](NC(=O)[C@H](NC(=O)C3=C(O)C(c4ccccc4F)NC3=O)c3ccccc3)C(=O)N2[C@H]1C(=O)O (some centres unmarked) | microbial growth, broth dilution | ATCC33186 |  | 25 µg/mL
